Results pooled from the literature.
Values joined by “and” are separate records of one study, mostly repeats; a detail may differ. Numbers after ± are the reported error. Converted amounts (≈) assume the structure as drawn.

| SMILES | tested on | assay | system | setting | scale | measurement | value |
| --- | --- | --- | --- | --- | --- | --- | --- |
| Nc1ncc(-c2ccc3ncnc(N4CCc5cc(F)c(Cl)cc54)c3c2)cn1 | – | AUClast ratio | CD1 mouse | – | baseline: brain over plasma | brain to plasma ratio | ~9 |
| CN(c1cccnc1)c1ccc2c(c1)c(=O)c(C(N)=O)cn2-c1ccc(F)cc1 | – | – | rat, plasma | – | – | unbound fraction | 0.061 |
| CN(C)c1ccc(C2=NC(C(=O)NO)CS2)cc1 (centres unmarked) | – | – | octanol/buffer | pH 11 | – | logD | -0.12 |
| Cc1ncc(CCc2ccc3c(c2)c(=O)c(C(N)=O)cn3-c2ccc(F)cc2)cn1 | – | – | rat | iv, 0.2 mg/kg, 15 min, cassette dosing | – | Kp,uu brain/plasma | 0.05 |
| Clc1ccc(-c2cc(NCCCN3CCCCC3)c3ccccc3n2)cc1 | – | – | human liver microsomes | 1 h | – | remaining compound | 23.9% |
| O=C(OC(C(F)(F)F)C(F)(F)F)N1Cc2ccc(Br)cc2C1 | – | – | male CD-1 mouse, plasma | oral, 8 mg/kg, 30 min, cassette dosing | – | plasma concentration | 6 ± 1 ng/mL |
| NC(=O)c1cn(-c2ccc(F)cc2)c2ccc(CCc3ccncc3)cc2c1=O | – | – | rat, plasma | – | – | unbound fraction | 0.057 |
| Cc1n[nH]c(C)c1CCOC(=O)c1cccc2c1oc(=O)n2C | – | – | PBS, 1% DMSO | pH 7.4 | – | kinetic solubility | > 100 µM |
| CCN(CC)c1ccc2c(-c3ccccc3C(=O)N(C)CCCC(=O)N[C@@H](CC(C)C)C(=O)N[C@@H](CCCNC(=N)N)C(=O)N[C@@H](CCCNC(=N)N)C(=O)N[C@@H](C)C(=O)N[C@@H](CO)C(=O)N[C@@H](CC(C)C)C(=O)NCC(=O)O)c3ccc(=[N+](CC)CC)cc-3oc2c1 | – | UV/Vis | phosphate buffer 25 mM | 100 µM, pH 7.4, at 560 nm | – | molar extinction coefficient | 37200 M⁻¹ cm⁻¹ |
| CCOc1ccccc1Nc1nnc(SCC(=O)Nc2cc(F)ccc2F)s1 | – | – | – | pH 7.4 | – | logD | 3.1 |
| Cc1c(-c2ccccc2)nn2c(=O)cc(-c3cccc(-c4nnn[nH]4)c3)[nH]c12 | – | – | mouse | 2 mg/kg, 10 h | – | plasma level | not detected |
| CC(C)n1nnc(-c2cc(O)cc(Nc3ncnn4ccc(CN5CCC(N)CC5)c34)c2)n1 | – | from plasma protein binding | mouse, plasma | subcutaneous, 10 mg/kg, 90 min | – | free plasma concentration | 13 nM |
| O=C(NO)[C@H]1COC(c2ccc(OCc3cccc(F)c3)c(OC(F)(F)F)c2)=N1 | – | – | octanol/buffer | pH 11 | – | logD | 1.4 |
| CC(=O)N1CC=C(c2cc3c(Nc4cc5ncsc5cc4F)ncnc3s2)CC1 | – | – | human liver microsomes | 1 µM | – | intrinsic clearance | 12 mL/min/g protein |
| NC(=O)c1cn(-c2ccc(F)cc2)c2ccc(NCc3cccnc3)cc2c1=O | – | – | rat, brain | iv, 0.2 mg/kg, 15 min, cassette dosing | – | concentration | 3 nM |
| NC1CCN(Cc2ccn3ncnc(Nc4cccc(-c5cnco5)c4)c23)CC1 | – | – | mouse, brain | intraperitoneal, 30 mg/kg, 90 min | – | total brain concentration | 1.8 µM and 1.84 µM |
| COc1ccc(CC(=O)OCc2ccc(-n3cccn3)cc2)cc1F | – | – | BALB/c mouse, plasma | oral, 10 mg/kg | – | Tmax | 1.12 h |
| Cc1cc(SCc2sc(-c3cccc(Cl)c3Cl)nc2C)ccc1OCC(=O)O | HEK293T | – | – | 18 h | – | CC50 | > 100 µM |
| O=C(NO)[C@H]1COC(c2ccc(F)cc2)=N1 | – | – | octanol/buffer | pH 11 | – | logD | -1.11 |

| SMILES | tested on | assay | system | setting | scale | measurement | value |
| --- | --- | --- | --- | --- | --- | --- | --- |
| Cc1cc(NC(=O)c2cccc(NC(=O)C3=CC(C)(C)CCC3=O)c2)ccc1Nc1nccc(-c2cccnc2)n1 | – | – | rat plasma | 1 µM, 120 min | – | compound remaining | 98.4% |
| COC(=O)[C@@H]1C(c2nc3cc(C(F)(F)F)ccc3s2)=Cc2cc3c(cc2[C@H]1c1cc(OC)c(OC)c(OC)c1)OCO3 | Leishmania infantum | Alamar Blue | HepG2 | – | baseline: CC50 HepG2 over EC50 amastigotes | selectivity index | > 2.4 |
| Cc1cc(SCc2sc(-c3cc(Cl)ccc3Cl)nc2C)ccc1OCC(=O)O | HEK293T | – | – | 18 h | – | CC50 | > 80 µM |
| CN(C)S(=O)(=O)c1ccc(NCCCCCCN2CCC(Nc3nc4ccccc4n3Cc3ccc(F)cc3)CC2)c2nonc12 | – | – | – | – | – | emission wavelength | 579 nm |
| NC(=O)c1cn(-c2ccc(F)cc2)c2ccc(CN3CCCSCC3)cc2c1=O | – | – | rat, plasma | – | – | unbound fraction | 0.074 |
| Cc1nn(C)c2c(C(C(=O)O)N3CC(OCCCCc4ccc5c(n4)NCCC5)C3)cccc12 (centres unmarked) | – | measured: body weight, systemic pressure, liver and kidney markers | rat, Sugen/hypoxia model | dose not given | – | toxicity | not toxic |
| O=C1Nc2cccc(C#CC3(O)CCNCC3)c2/C1=C/c1cc2ccccc2[nH]1 | – | – | C57BL/6 mouse | oral, 10 mg/kg | – | oral bioavailability | < 5% |
| O=C(NO)C1CSC(c2ccc(F)c(C(F)(F)F)c2)=N1 (centres unmarked) | – | – | octanol/buffer | pH 11 | – | logD | 0.43 |
| Cc1ncsc1-c1ccc([C@H](C)NC(=O)[C@@H]2C[C@@H](O)CN2C(=O)[C@@H](NC(=O)CCCCCCC(=O)N2CCN(C[C@]3(C)CCC(c4ccc(Cl)cc4)=C(CN4CCN(c5ccc(C(=O)NS(=O)(=O)c6ccc(N[C@H](CCN7CCOCC7)CSc7ccccc7)c(S(=O)(=O)C(F)(F)F)c6)cc5)CC4)C3)CC2)C(C)(C)C)cc1 | – | – | naturally aged mice | intraperitoneal, 5 mg/kg every 3 days | – | body and liver weight | no effect |
| CCCSc1nc(N[C@@H]2C[C@H]2c2ccc(F)c(F)c2)c2nnn([C@@H]3C[C@H](O)[C@@H](O)[C@H]3O)c2n1 | – | – | rat, female, plasma | oral, 20 mg/kg/day ticagrelor, week 26 | – | AUC | 7.2 µM·h |
| O=C(NO)[C@H]1COC(c2ccc([N+](=O)[O-])cc2)=N1 | – | – | aqueous buffer | pH 7.4 | – | solubility | 30.2 mg/mL (≈ 120 mM) |
| O=C(O)c1cccc(-c2nc(-c3ccccc3F)c3sccn23)c1 | – | – | mouse liver microsomes | 1 µM, 30 min | – | remaining compound | 38% |
| CCCCC(=O)n1ncc(=O)c2ccccc21 | – | RP-HPLC | human serum | 0.08333 h, 25 °C | – | remaining compound | < 3% |
| Cc1ncc(OCc2ccc3c(c2)c(=O)c(C(N)=O)cn3-c2ccc(F)cc2)cn1 | – | – | rat, plasma | – | – | unbound fraction | 0.109 |
| COc1cc([C@@H]2c3cc4c(cc3[C@@H](C=C(C)C)[C@H]3COC(=O)[C@H]23)OCO4)cc(OC)c1OC | Leishmania infantum | iRFP fluorescence | mouse splenocytes infected, amastigote, iRFP, ex vivo splenic explant | 48 h | – | EC50 | 9.3 ± 0.4 µM |
| Oc1ccc(-n2cc(-c3ccc4cc(OCCOCCN5CCOCC5)ccc4n3)nn2)cc1 | – | shake-flask | Britton-Robinson buffer | 48 h, pH 6.5, 30 °C | – | aqueous solubility | 105 µM (≈ 48.5 µg/mL) |
| NC(=O)c1cn(-c2ccc(F)cc2)c2ccc(Nc3cccnc3)cc2c1=O | – | – | rat, plasma | – | – | unbound fraction | 0.084 |
| CCOC(=O)C1=C(C)NC2=C(C(=O)CC(C)(C)C2)C1c1ccc(OCC(=O)NN=Cc2cccc(C=O)c2)cc1OCC(=O)NN=Cc1cccc(C=O)c1 (centres unmarked) | Pseudomonas fluorescens | – | – | concentration not given, 24 h | – | inhibition zone diameter | 2.1 ± 0.1 mm |
| CSc1cc(NC(=O)c2ccccn2)ccc1Cl | – | – | rat liver microsomes | – | – | elimination rate constant | 0.106 min⁻¹ |

For quick reference, copied from above:
| SMILES | tested on | assay | system | setting | scale | measurement | value |
| --- | --- | --- | --- | --- | --- | --- | --- |
| O=C1Nc2cccc(C#CC3(O)CCNCC3)c2/C1=C/c1cc2ccccc2[nH]1 | – | – | C57BL/6 mouse | oral, 10 mg/kg | – | oral bioavailability | < 5% |
| CSc1cc(NC(=O)c2ccccn2)ccc1Cl | – | – | rat liver microsomes | – | – | elimination rate constant | 0.106 min⁻¹ |
| CC(=O)N1CC=C(c2cc3c(Nc4cc5ncsc5cc4F)ncnc3s2)CC1 | – | – | human liver microsomes | 1 µM | – | intrinsic clearance | 12 mL/min/g protein |
| Cc1cc(SCc2sc(-c3cc(Cl)ccc3Cl)nc2C)ccc1OCC(=O)O | HEK293T | – | – | 18 h | – | CC50 | > 80 µM |
